Measurements of several laboratories.
Each numbered part is a random draw from the data of one study; scales do not carry over between parts. Positions count from the first letter of the parent shown.

Block 1 — target: CCNB2, cyclin fold, Cln2 fusion (human); technique: yeast growth competition, sequencing; sample: yeast; setting: weak parent motif; relative to: not given; direction: higher = stronger binding
Starting sequence: ORC1 docking peptide (human); PRARKRLELGNLG
Variant	normalised enrichment score
PRARWRLELGNLG [K5W]	0.342
SRARKRLELGNLG [P1S]	-0.0209
PRARKRLELGNLR [G13R]	0.548
TRARKRLELGNLG [P1T]	0.0661
PPARKRLELGNLG [R2P]	0.149
PRARKRLWLGNLG [E8W]	0.822
PRARKVLELGNLG [R6V]	0.12
PRAKKRLELGNLG [R4K]	0.331
PRARFRLELGNLG [K5F]	0.148
PRARKRLELGLLG [N11L]	0.919
PRARKRLELGNQG [L12Q]	0.293
PRARKRLELKNLG [G10K]	0.272
PRARKREELGNLG [L7E]	0.361
PRASKRLELGNLG [R4S]	0.459
PRARKRLELSNLG [G10S]	0.301
PRARKYLELGNLG [R6Y]	0.745

Block 2 — technique: RNA Bind-n-Seq; form: RNA; sample: in vitro; concentration: 365 nM; relative to: no-protein control; direction: higher = stronger binding
Target: RNA binding protein fox-1 homolog 2, RRM domain, GST-SBP tag (RBFOX2, Homo sapiens, UniProt O43251-10, residues 100-194)
Setting: natural RNA segment, single round, ends assumed
All sequences stand within: GGGAGUUCUACAGUCCGACGAUC … UGGAAUUCUCGGGUGCCAA
Target sequence (chain): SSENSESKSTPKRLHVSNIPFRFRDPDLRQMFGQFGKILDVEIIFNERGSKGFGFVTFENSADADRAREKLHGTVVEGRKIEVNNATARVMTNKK
Strand	RBNS enrichment (R)
UGAGUCAAGUCAAAUAUGUAGAUUGCCUUUGGCAAUUCUUCUUCUCAAGCACUGACACUCAUUACCGUCUGUGAUUGCCAUUUCUUCCCAAGGCCAGUCUGAACCUGAGG	0.358
GCGCUCUAUUGCCCAUGGGAUAUGUGGUGUGUAUCCUUCAGAAAAAUUAAAAGGAAAAAUAAAGAAACUGUAGCCUGUUGUUUCUCCUGGGCUUGGGGUAGGGCUGCGGA	1.78
GUAGACUGCGGGGUCCUAGCCUCUUCCUCCGACUUUGCUUUUGCAGGUCUUUCACUGCAGAUGGGGCUGCUGUGGGAGUUGGGACUUGUUUGUUUUCCUUUUUGAGUUCA	1.62
UCUUCCAUCUGAAGUUUGACUUUUAUACCCAGCCAGAAGUUACAAAAUGAUGACCCACUCUGGGUAUAAGCUUGAUUUCCUUUGUUGAGACUUACCCUUCAUUGAAGAGA	0.437
UCUGUUGAGAUUUUUCCCUCACCUUGCCUCUCAGGCACAAUAAAUAUAGUUAUACCACUGCCCAUCAGCCCAAGUCUCUUUAUUGGAACCGGGCCCCGCUGGCCCUGGCU	0.581
GUUGCUGGGACCCAGGAGGAAAGGGGAAGAUGUCCUGUUUCCUAUCCUAGGUGUGGACGCCCGCCUUGCCCUUUGUUAGCUUCCUGGGUUCCCAUGAACUCAGGGAUUUG	0.354
CUUGCACACAGCCAUUCCCUAGCGCAAAGGUGCUGGUCACACUGCUUACUGAGGCGCUGAAGAGGCUCCCCCCACCCCCUUGAGGGUCAGUUUGUUAUUUCUCAAGUAUA	0.705
AGGGAGAGGCUGUGGUGGCUGUCUCUGUCCCUCACUGCCUUCCAGGAGCAAUUUGCACAUGUAACAUAGAUUUAUGUAAUGCUUUAUGUUUAAAAACAUUCCCCAAUUAU	1.2

Block 3 — target: NFE2L3, bZIP domain (human); technique: DHFR protein complementation; sample: yeast; relative to: wild-type JUN-FOS pair; direction: higher = stronger binding
Setting: single substitutions, most at no-binding floor
Starting sequence: JUN, bZIP domain (human); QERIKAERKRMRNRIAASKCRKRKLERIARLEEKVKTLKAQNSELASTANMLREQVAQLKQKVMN; partner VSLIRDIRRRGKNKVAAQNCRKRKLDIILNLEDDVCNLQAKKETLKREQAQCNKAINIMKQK
Variant	binding fitness [natural log]
I28V	-1.22
V56S	-1.39
L52M	-1.51
L45D	-1.59
E44R	-1.41
K39T	-1.51
E33Q	-1.42
L31G	-1.46
R30M	-1.35
L31K	-1.51
L52A	-1.56
K34W	-1.52
V35L	-1.49
E33R	-1.52
L45Y	-1.19
T37K	-1.6

Block 4 — technique: DHFR PCA, deep sequencing; sample: yeast; with: (+)-ABA 710 µM; relative to: wild-type fitted maximum; direction: higher = stronger binding
Target: ABI1, truncated, D143A, DHFR fusion (Arabidopsis thaliana)
Setting: methotrexate growth selection, single substitutions
Starting sequence: PYL1, truncated, DHFR fusion (Arabidopsis thaliana); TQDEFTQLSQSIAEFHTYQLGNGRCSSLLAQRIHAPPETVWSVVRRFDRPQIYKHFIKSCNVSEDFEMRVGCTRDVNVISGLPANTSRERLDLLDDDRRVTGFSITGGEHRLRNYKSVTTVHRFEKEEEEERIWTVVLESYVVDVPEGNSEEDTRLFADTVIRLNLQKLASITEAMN; partner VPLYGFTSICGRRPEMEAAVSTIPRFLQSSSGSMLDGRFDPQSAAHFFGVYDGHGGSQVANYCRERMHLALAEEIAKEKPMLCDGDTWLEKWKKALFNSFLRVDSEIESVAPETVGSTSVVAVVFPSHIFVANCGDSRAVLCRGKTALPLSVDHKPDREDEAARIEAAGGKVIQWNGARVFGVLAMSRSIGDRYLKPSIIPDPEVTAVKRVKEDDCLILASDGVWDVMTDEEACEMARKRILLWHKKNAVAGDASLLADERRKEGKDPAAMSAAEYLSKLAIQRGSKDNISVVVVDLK
Variant	relative binding score [%]
S26Y	99
D159Y	41
D92C	93.3
D159N	97
D92P	3.88
E89S	9.73
R111M	91.3
F66R	96.9
H34E	97.5
R99I	40.7
V43S	72.6
T6N	111
L28F	98.6
V145A	83.6
S27Y	68.4
H34F	99.3
L138H	72.8

Block 5 — technique: competition protein-binding microarray; form: double-stranded DNA, one strand shown; sample: in vitro; concentration: 2 µM; with: Cbf1 competitor, 0.05 µM; direction: higher = stronger binding; all sequences stand within: … GTCTTGATTCGCTTGACGCTGCTG
Target: Phosphate system positive regulatory protein PHO4, full length, GST-tagged (PHO4, Saccharomyces cerevisiae, UniProt P07270, residues 1-312)
Setting: whole 60-bp probe, lowest competitor level
Target sequence (chain): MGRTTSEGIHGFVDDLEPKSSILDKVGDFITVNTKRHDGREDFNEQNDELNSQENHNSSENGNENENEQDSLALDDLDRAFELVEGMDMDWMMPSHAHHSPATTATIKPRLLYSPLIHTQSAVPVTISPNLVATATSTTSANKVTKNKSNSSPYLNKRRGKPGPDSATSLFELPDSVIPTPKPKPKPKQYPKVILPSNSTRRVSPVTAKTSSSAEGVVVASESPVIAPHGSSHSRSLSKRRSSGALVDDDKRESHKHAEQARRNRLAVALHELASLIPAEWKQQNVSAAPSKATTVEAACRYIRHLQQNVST
Strand	fluorescence intensity [a.u.]
GGTTTCTGAGGCTCGCACAGGAGGCACCCCAGTTCT	4700
TGAATACGTCTCTTGCTCGTGTGTTTTGCCATTATG	7810
CCGGTTGACGGGGTTCGCGTGATTGTGCGATTCGTT	5720
CACAACAGTTCCAATCACGTGATGGTTACTGGACTT	15200
TGCGCAACAACTTGAGCAGTGGGTGTATGTCTAGAA	4830
GAACCAGAGATGTTCCACGTGAAATATTACCAACCA	13600
AAAGCGGTAATTTTTCACGTGCATTCACATATCTAT	13900
AAGATTCCGGAGTCCCTCGTGAGGAAATTTTTATTA	6430
CATACCCAACCTTGGCACGTGTTTTAAGATATTTGT	19700
CATACCCAACCTTGATTTGTGGGTGAAGATATTTGT	3620
TGCGCAACAACTTTTCACGTGAAGTTATGTCTAGAA	9120
TCATGCATCCATTGCCTCGTGTAACTGAAATCAAAG	8720
TCAACACTTCACCAACACGTGTCGGGGACCGCTTCA	17300
AGAGCGTTCGCGTTTCTCGTGCCGAGTGCTTTTAAC	7070
TTATGTTCAACACGACATCCTAACAAATACTACAGC	6380
AAAAGAAACAAAGCAAGCGTGCCGAGACTTAGGGTT	7270
CGGGGTTAAGTTTGTACGGTGGGTGGCTTGCAGCAG	5330
TTAATTAGCTTCTTGCATGTGCTCTTTAGCTTCGGC	9930
GTCTTGTCTCATTTTCACGTGCACTTCCCCACTTCA	13600

Some of these lines once more (block 3):
Variant	binding fitness [natural log]
L52M	-1.51
L45D	-1.59
R30M	-1.35
L45Y	-1.19
K39T	-1.51
